Measured values from different studies.
Parts stem from different laboratories: compare values within a part only.

Study 1
Target: Fragile X messenger ribonucleoprotein 1, C-terminal low-complexity region (Fmr1, Mus musculus, UniProt P35922)
Method: RNA Bind-n-Seq
Form: RNA
Sample: in vitro
Tested at: 200 nM
Setting: whole 134-nt RNA, ends assumed
Together with: 150 mM LiCl
Baseline: input library
Reading: higher = stronger binding
Quantity: log2 enrichment
Each molecule: 7-deaza-guanosine replaces G
Shared flanks, not repeated: GGGAGUUCUACAGUCCGACGAUC … UGGAAUUCUCGGGUGUCAAGG
UGCAGAAGCAUCUUCAGUUGGAGAGCCAUUGCCUCUUGCUGUGAAAUAUUUGGGAAUCUUCAGAAACCAUGAAGAAUAACCUGCUAAAGG: -0.309
UCCUGUGCUACACAUCGUAUGUACCGAAUCGGGAAAAAAAGGGUUUUUUUGGGAAAGGGAAAGUAUUAUGUUACGCCGUUCGGAUCUGCA: -2.25
CAAGUCCUGUGCUACACAUCGUAUGUACCGAAUCGGGCCCCGGCCCCGGCCCCGGAAAGUAUUAUGUUACGCCGUUCGGAUCUGCACUUC: -1.27
AAGUCCUGUGCUACACAUCGUAUGUACCGAAUCGGGUUUUUUUGGGUUUGGGAGGGAAAGUAUUAUGUUACGCCGUUCGGAUCUGCACUU: -1.19
AGUCCUGUGCUACACAUCGUAUGUACCGAAUCGGGAAAAAGGGAAAAAGGAAAAAGGAAAGUAUUAUGUUACGCCGUUCGGAUCUGCACU: -1.38
GCAGGAAGUAAAAACAAAUGGAAAUGCUUCGGAUAGUGGCACGGGUGGGGGUUGCUAAGGAAAGGGUGGGAUGGGAGUGGGUAAAGAGUU: 1.19
UGUGCUACACAUCGUAUGUACCGAAUCGGGGAAAAAAAGGGGAAAAAGGGGAAAAAAAGGGGAAAGUAUUAUGUUACGCCGUUCGGAUCU: 1.16
AAGUCCUGUGCUACACAUCGUAUGUACCGAAUCGGGGAAAAGGAAAAGGGGAAAAGGAAAGUAUUAUGUUACGCCGUUCGGAUCUGCACU: 0.0743
ACCAUGCAGGUGGGCAUCUUUGGGAAGUGGGGCAAGGGGGGGAUAGGGAGGGGGGUAACACUUUGGGAACAGGAGGUCCCAGGUCGUUUC: 1.32
GUCCUGUGCUACACAUCGUAUGUACCGAAUCGGGAAAAAAAGGGUUUUUGGGUUUGGGAAAGUAUUAUGUUACGCCGUUCGGAUCUGCAC: -2.47
CUGUGCUACACAUCGUAUGUACCGAAUCGGGUUUUUUUGGGGUUUUUUUGGGUUUUUUUGGGAAAGUAUUAUGUUACGCCGUUCGGAUCU: 1.19

Study 2
Target: Histone acetyltransferase KAT6A, both winged helices, GST fusion (KAT6A, Homo sapiens, UniProt Q92794, residues 1-181)
Method: protein binding microarray
Form: double-stranded DNA, one strand shown
Sample: in vitro
Tested at: not given
Setting: 8-mer, flanks averaged, mean of 2 arrays, mostly near background
Baseline: not given
Reading: higher = stronger binding
Quantity: E-score
Target sequence (chain): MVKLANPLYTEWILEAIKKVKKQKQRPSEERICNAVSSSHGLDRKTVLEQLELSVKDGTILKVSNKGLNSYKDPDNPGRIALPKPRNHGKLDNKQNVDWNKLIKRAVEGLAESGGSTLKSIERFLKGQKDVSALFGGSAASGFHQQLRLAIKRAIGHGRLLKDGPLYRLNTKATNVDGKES
AATAAAAG: 0.0254
CGTACCGC: 0.275
AAGGTGCA: -0.129
AGTTTTTC: 0.0451
ACGAGAGA: -0.101
CATTAACC: -0.00788
CGGCGAAC: 0.315
CCGAGGGC: 0.086
GGCAGAAC: -0.0338

Study 3
Target: Centromere-binding protein 1, full length, N-terminal tag (CBF1, Saccharomyces cerevisiae, UniProt P17106, residues 1-351)
Chain of UniProt P17106 (whole entry, looked up): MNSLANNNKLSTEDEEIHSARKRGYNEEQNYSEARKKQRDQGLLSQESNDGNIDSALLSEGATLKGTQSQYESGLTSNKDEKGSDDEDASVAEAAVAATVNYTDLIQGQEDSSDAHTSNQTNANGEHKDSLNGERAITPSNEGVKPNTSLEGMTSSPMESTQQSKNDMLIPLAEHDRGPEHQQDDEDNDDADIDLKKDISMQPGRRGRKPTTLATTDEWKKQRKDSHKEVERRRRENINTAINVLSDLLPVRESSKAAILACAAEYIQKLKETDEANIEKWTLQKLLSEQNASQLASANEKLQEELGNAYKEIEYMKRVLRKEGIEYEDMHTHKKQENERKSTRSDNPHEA
Method: protein-binding microarray
Form: double-stranded DNA, one strand shown
Sample: in vitro
Tested at: 0.8 µM
Setting: whole 60-bp probe, no competitor
Reading: higher = stronger binding
Quantity: fluorescence intensity
Shared flanks, not repeated: … GTCTTGATTCGCTTGACGCTGCTG
GAACAGGCATTCCATGTGATAATGAAATTCTCGTAG: 1170 a.u.
GAACAAACAAACCACGTGATGGTCTACACGTTGTAG: 12300 a.u.
CTAATCTTCATCATGCACGTCGGTAACGGAAGCTTC: 550 a.u.
CTAAAGACCCAGAGGCACATGCAAGATAGTTGTTTC: 613 a.u.
GAATGTTCTATTAGTCTCATGATTTATGTCTTTTAG: 645 a.u.
CTATGAGCAGAAGTTGATGTTACCTAGATGTGATTC: 526 a.u.
GAAGATTAGAAATTCTTCGTGATTAATTCCTACTAG: 504 a.u.
GAAACATATATTAACCACATGAAGGCACTTGCATAG: 575 a.u.
CTATATTATCGCGCAGGTGAGAGAGTCCTGGAATTC: 583 a.u.
GAAGTCGGGAGTCATGATGCGACATTTACCCGGTAG: 544 a.u.
GAATGAACGATGAAGAACACCACCATTTCAGAATAG: 501 a.u.

Further values, each from its own experiment
PhoQ, residues 284 288 289 292 302 303 TTCLQL  fold induction (PhoP, residues 12 14 15 18 19 NHTVL (Escherichia coli, UniProt P23836); Sort-seq, item: YFP reporter; E. coli; PhoQ-PhoP variant library, together with: 10 µM Mg2+; baseline: high Mg2+ state, higher = stronger signaling): 2.04

Excerpt of the above (study 1):
ACCAUGCAGGUGGGCAUCUUUGGGAAGUGGGGCAAGGGGGGGAUAGGGAGGGGGGUAACACUUUGGGAACAGGAGGUCCCAGGUCGUUUC: 1.32
GUCCUGUGCUACACAUCGUAUGUACCGAAUCGGGAAAAAAAGGGUUUUUGGGUUUGGGAAAGUAUUAUGUUACGCCGUUCGGAUCUGCAC: -2.47
CUGUGCUACACAUCGUAUGUACCGAAUCGGGUUUUUUUGGGGUUUUUUUGGGUUUUUUUGGGAAAGUAUUAUGUUACGCCGUUCGGAUCU: 1.19
